Published values gathered from unrelated publications.
Each numbered part is a random draw from the data of one study; scales do not carry over between parts. Changes are numbered by the printed parent chain.

Series 1 — technique: RNA Bind-n-Seq; molecule type: RNA; medium: in vitro; concentration: 200 nM; setting: whole 134-nt RNA, ends assumed; with: 150 mM LiCl; reference: input library; direction: higher = stronger binding; library: 7-deaza-guanosine replaces G
Target: Fragile X messenger ribonucleoprotein 1, C-terminal low-complexity region (Fmr1, Mus musculus, UniProt P35922)
Shared flanks, not repeated: GGGAGUUCUACAGUCCGACGAUC … UGGAAUUCUCGGGUGUCAAGG
Oligonucleotide | log2 enrichment
UCCUGUGCUACACAUCGUAUGUACCGAAUCGGGGUUUGGGGUUUGGGGAAAAAAAGGGGAAAGUAUUAUGUUACGCCGUUCGGAUCUGCA | -1.22
UUUAAACUGAAGCCGCGGCCGAAAACGCCAAGAGAUUGAUGCUGUAGCUGCCCUGAGAUAACCAGGACUGUGGAAUCGGGAAGAGCUCAU | -1.84
AAGUCCUGUGCUACACAUCGUAUGUACCGAAUCGGGGAAAGGGGUUUGGGGAGGGGAAAGUAUUAUGUUACGCCGUUCGGAUCUGCACUU | -0.718
UAACUUUAGACGAGGAUCUGAUGGAUAUGGCAGUGGACGUGGAUUUGGGGAUGGCUAUAAUGGGUAUGGAGGAGGACCUGGAGGUGGCAA | 0.0742
CCUGUGCUACACAUCGUAUGUACCGAAUCGGUUUUUUGGGGUUUUUUGGGUUUUUUGGGGAAAGUAUUAUGUUACGCCGUUCGGAUCUGC | -1.12
AUUAAUUUGUACACAGACAGGGAAACUGGCAAGCUGAAGGGAGAGGCAACGGUCUCUUUUGAUGACCCACCUUCAGCUAAAGCAGCUAUU | -2.27
UCCUGUGCUACACAUCGUAUGUACCGAAUCGGGUUUUUUGGGGUUUUUUGGUUUUUUGGGAAAGUAUUAUGUUACGCCGUUCGGAUCUGC | -0.355

Series 2 — technique: competition protein-binding microarray; molecule type: double-stranded DNA, one strand shown; medium: in vitro; concentration: 2 µM; with: Cbf1 competitor, 0.05 µM; direction: higher = stronger binding; shared flanks, not repeated: … GTCTTGATTCGCTTGACGCTGCTG
Target: Phosphate system positive regulatory protein PHO4, full length, GST-tagged (PHO4, Saccharomyces cerevisiae, UniProt P07270, residues 1-312)
Setting: whole 60-bp probe, lowest competitor level
Target sequence (chain): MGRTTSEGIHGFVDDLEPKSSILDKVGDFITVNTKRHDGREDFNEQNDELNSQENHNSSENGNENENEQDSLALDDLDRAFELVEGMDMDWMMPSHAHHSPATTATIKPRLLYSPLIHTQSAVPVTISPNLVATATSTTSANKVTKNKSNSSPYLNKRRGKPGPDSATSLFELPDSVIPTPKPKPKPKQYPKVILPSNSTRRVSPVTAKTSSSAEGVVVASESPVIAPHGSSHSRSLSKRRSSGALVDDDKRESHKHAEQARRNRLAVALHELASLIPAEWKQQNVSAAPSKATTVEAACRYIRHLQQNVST
Oligonucleotide | fluorescence intensity [a.u.]
TTTAACGCTTATGTACACGGGTGCAAAACTACCCCT | 7200
AAAGCGGTAATTTGGCTAGTGGGTGCAGATATCTAT | 4680
CTAGGCGGGATCTGGCCCGTGGAACTCGTATGGAAT | 6750
TACACCCAGTCATCCGGCGTGACGGGATCTCCACTT | 4890
CCGGAAGTGAAAGAAGACGTGATGGGCTATGCGCTA | 3930
CTAACGAAGGTTTGAACGGTGGGTGACAAGCCAAGT | 3410
GCCTCCGGTCCAGGCACCGTGGCCGCAGGTTTGATT | 5970
TGAAGGTTCTTTCTGCTCGTGAAGAGTCGCTAGACG | 3760
TACTGAATGCTACTGACCGTGACGGTCTATCAGGCT | 4180
TGCGCAACAACTTGTTTGGTGGGTGTATGTCTAGAA | 4080
TGGTTCACAGCTAACCTTGTGACAGTTGCCTCGCTG | 4550
TGATTTGCTTCTCACCACGGGTAGTTATCATTGGCT | 7530
CTTGGGCAAGCGAGTCACGTACTTTTTTTTTTTTTT | 4550
CAACCAGTTGCGCAGGGCGTGCCAGATGAACGCTCT | 8600
GCTCCCTGGTTCCGTCACGCAAAACCGAAAGGCTCA | 3260
AAAGCGGTAATTTTCCACGTGTTTTCACATATCTAT | 16500
CGTCCTAGTGATTGGCACGTGTTTTCCATGAGGAAG | 17600
GTCTTGTCTCATTGTCACAACACTTTCCCCACTTCA | 4520

Series 3 — technique: DHFR PCA, deep sequencing; medium: yeast; with: (+)-ABA 2500 µM; reference: wild-type fitted maximum; direction: higher = stronger binding
Target: ABI1, truncated, D143A, DHFR fusion (Arabidopsis thaliana)
Setting: methotrexate growth selection, single substitutions
Starting sequence: PYL1, truncated, DHFR fusion (Arabidopsis thaliana); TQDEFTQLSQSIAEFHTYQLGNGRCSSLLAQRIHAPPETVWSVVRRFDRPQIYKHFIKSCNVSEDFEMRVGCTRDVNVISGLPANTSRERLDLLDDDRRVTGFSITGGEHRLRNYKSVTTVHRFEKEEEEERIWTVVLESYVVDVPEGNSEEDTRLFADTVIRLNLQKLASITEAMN; partner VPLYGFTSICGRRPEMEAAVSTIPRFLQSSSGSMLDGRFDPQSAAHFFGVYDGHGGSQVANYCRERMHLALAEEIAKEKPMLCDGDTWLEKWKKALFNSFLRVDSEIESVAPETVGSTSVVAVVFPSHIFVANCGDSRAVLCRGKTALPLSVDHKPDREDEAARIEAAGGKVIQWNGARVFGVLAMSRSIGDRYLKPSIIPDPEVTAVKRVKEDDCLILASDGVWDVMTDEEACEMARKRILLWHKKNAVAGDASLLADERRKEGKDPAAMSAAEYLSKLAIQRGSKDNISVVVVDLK
Substitution | relative binding score
N114L | 64.8%
D144V | 84.1%
A13Y | 93%
L82K | 5.67%
K116Y | 87.4%
N77G | 98.6%
E109F | 92.9%
R74L | -8.59%
D92L | 82.5%

Series 4 — technique: protein-binding microarray; molecule type: double-stranded DNA, one strand shown; medium: in vitro; concentration: not given; direction: higher = stronger binding
Target: Myc proto-oncogene protein, bHLH-zipper, MAX partner unstated (MYC, Homo sapiens, UniProt P01106, residues 368-449)
Chain of UniProt P01106 (368-449, looked up): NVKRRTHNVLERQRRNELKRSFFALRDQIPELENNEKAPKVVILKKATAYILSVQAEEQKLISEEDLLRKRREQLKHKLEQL
Setting: k-mer, scored over probes, only values ≥0.25
Oligonucleotide | E-score
CGTGTAAA | 0.314
CATGTGCA | 0.454
GGGGTGGA | 0.27
ATCGTGGC | 0.325
CCCCCACG | 0.374
ACCCACGT | 0.42
CGTGACCA | 0.37
CTCCATGC | 0.376
ACGTGCCT | 0.373
AGCGTGAC | 0.358
CCCCTCGA | 0.251
ATGCGGCA | 0.373
ATGCTTTG | 0.264
CGTGCAGA | 0.311
GCATGTTA | 0.332

Series 5 — technique: protein-binding microarray; molecule type: double-stranded DNA, one strand shown; medium: in vitro; concentration: 250 nM; setting: 60-bp whole probe; with: salmon DNA 0.4 mg/ml; reference: random background probes; direction: higher = stronger binding; shared flanks, not repeated: GCCTAGCAC … GTCTTGATTCGCTTGACGCTGCTG
Target: Interferon regulatory factor 7, full length, phosphomimetic (IRF7, Homo sapiens, UniProt Q92985, residues 1-503, S101K/S471D/S472D/S475D/S476D/S477D/S483D/S484D/S487D)
Target sequence (chain): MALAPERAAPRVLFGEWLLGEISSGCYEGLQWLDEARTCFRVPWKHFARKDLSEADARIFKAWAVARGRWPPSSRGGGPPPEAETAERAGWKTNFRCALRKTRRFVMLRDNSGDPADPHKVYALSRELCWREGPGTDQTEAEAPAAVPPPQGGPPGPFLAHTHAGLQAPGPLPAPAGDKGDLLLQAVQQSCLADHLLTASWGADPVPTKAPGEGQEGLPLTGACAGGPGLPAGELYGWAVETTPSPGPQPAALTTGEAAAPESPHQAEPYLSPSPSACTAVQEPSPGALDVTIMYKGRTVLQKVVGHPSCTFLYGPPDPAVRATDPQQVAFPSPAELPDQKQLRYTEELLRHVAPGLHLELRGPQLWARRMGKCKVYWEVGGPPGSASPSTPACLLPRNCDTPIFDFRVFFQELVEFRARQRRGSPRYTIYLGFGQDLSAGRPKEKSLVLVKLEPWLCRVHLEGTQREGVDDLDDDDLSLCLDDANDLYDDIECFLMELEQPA
Oligonucleotide | log fluorescence
TTAGGACTGGGACTGGGTAAGTGCTAG | -0.224 z-score
TTAGGTTTGCTTTCCCTTTAGTGCTAG | 2.15 z-score
TTAAATTTCAGTTCCGATTAGTGCTAG | 2.03 z-score
TCACATTTTTTTTTTCTACTGTGCTAG | 1.25 z-score
GTTAGTGGGATGGCTGTGGTGTGCTAG | -1.19 z-score
GACGAACTGAGACTCGAGACGTGCTAG | 0.504 z-score
GACGAACTGAGTATCGACACGTGCTAG | -0.0513 z-score
TCATTTCTCTTTCACTGACTGTGCTAG | 2.87 z-score
TCTGGGCCTCCATCATCTGTGTGCTAG | -1.04 z-score
GACGTACTGGGTCTCGGGACGTGCTAG | 0.144 z-score
GACGGTTTCGGGTTTCGGCACGTGCTA | 11.3 z-score
TTAGATATGAGACTGGATTAGTGCTAG | -0.0687 z-score
TTAGGTATCGGTTTCGATTAGTGCTAG | 10.9 z-score
GACGAACTGAGTCCCGAGACGTGCTAG | 0.112 z-score
GACGAACTGGGGAATCGAGACGTGCTA | 0.304 z-score
GACGAACTGGGGTATCAAGACGTGCTA | -0.735 z-score
CTCTAACTCAAGATTCCTCTCGTGCTA | 0.273 z-score

Series 6 — target: CCND2, cyclin fold, Cln2 fusion (human); technique: yeast growth competition, sequencing; medium: yeast; setting: weak parent motif; reference: not given; direction: higher = stronger binding
Starting sequence: PKN2 docking peptide (human); VSAVQKLDFSDTM; partner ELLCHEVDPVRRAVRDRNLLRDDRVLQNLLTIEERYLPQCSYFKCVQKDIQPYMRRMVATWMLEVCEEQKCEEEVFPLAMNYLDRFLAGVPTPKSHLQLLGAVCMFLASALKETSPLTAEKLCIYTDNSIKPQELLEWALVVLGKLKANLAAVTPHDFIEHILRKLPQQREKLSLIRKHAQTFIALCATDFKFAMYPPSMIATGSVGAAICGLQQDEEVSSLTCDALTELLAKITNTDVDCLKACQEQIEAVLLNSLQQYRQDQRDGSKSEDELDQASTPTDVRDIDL
Substitution | normalised enrichment score
M13F | 0.366
V4P | -0.0599
D8K | 0.371
T12G | 0.695
S2D | -0.0597
T12N | 0.604
V1T | 0.715
V1H | 0.904
V1L | 0.413
T12I | 0.554
L7I | 0.226
D11W | 0.45
T12E | 1.06
